Results collected from several papers.
Lines come from different studies, so protocols differ. Several values in a cell are separate wells, animals, samples, runs or records. ± marks the error that the study gave.

SMILES | test | test system | setting | scale | measurement | value
CC(=O)N([O-])CCCCCNC(=O)CCC(=O)N([O-])CCCCCNC(=O)CCC(=O)N([O-])CCCCCN.[89Zr+4] | – | mouse, blood | 24 h | – | tracer uptake | 0.02 %ID/g
C=Cc1c(C)c2cc3nc(c(CC(=O)OCCOCCOCCOC)c4[nH]c(cc5nc(cc1[nH]2)C(C)=C5CC)c(C)c4C(=O)OCCOCCOCCOC)[C@@H](CCC(=O)OCCOCCOCCOC)[C@@H]3C | LC-MS | methanol-water 9:1 | 5 min, pH 8.0 | – | compound loss | 7%
Cc1ccc(CN2C(=O)/C(=N\c3ccc(Cl)cc3Br)c3ccccc32)cc1 | – | mouse, blood | 150 mg/kg | – | haematocrit | 37.6 ± 0.91%
CCCCCCCOc1ccc(CC[C@](N)(CO)COP(=O)(O)O)cc1C(F)(F)F | – | healthy human males, plasma | oral, 0.75 mg, day 21, median | – | Tmax | 12 h
C[C@@H](C(=O)O)c1ccc(-c2ccccc2)c(F)c1 | HPLC | solution | concentration not given, 6 h, room temperature | – | relative change of HPLC peak area | 0.59%
Cc1nc(N)nc2c1C(=O)N[C@@H](c1ccc(F)cc1-c1cccc(O[11CH3])n1)C2 | ex vivo biodistribution | mice, U87 subcutaneous xenograft, brain | 60 min post-injection, baseline, vehicle pre-treatment | – | tracer uptake | 4 ± 0.7 %ID
CCCCN1C(=O)c2cccc3c(NCCCCCCCCN4CCOCC4)ccc(c23)C1=O | – | DMSO | – | – | fluorescence lifetime | 10.5 ns
COc1ccc(Nc2nc(Nc3ccc(OCCOCC[18F])cc3)ncc2Br)cc1 | – | ICR mice, S180 tumour | intravenous, 370 kBq, 120 min | reference: tumour over muscle | uptake ratio | 1.56
CC[C@H](C)[C@@H]1NC(=O)[C@H](Cc2ccc(O)cc2)NC(=O)CCCSC[C@@H](C(=O)N(CC(=O)N[C@@H](CC(C)C)C(=O)NCC(N)=O)Cc2ccc(F)cc2)NC(=O)[C@H](CC(N)=O)NC(=O)[C@H](CCC(N)=O)NC1=O | – | human | intranasal, 400 µg single dose | – | serious adverse events | 0%
CCC1C(COc2nccc3cc(C(N)=O)c(OC)cc23)NC(=O)C1F (centres unmarked) | – | ICR mice, plasma | oral, 10 mg/kg | – | AUC(0-t) | 0.163 ± 0.053 µg·h/mL
COc1cccc(OC)c1-c1cc(C(=O)NC2(C(=O)O)C3CC4CC(C3)CC2C4)nn1-c1ccc(C(=O)N(C)CCOCCOCCN(C)C(=O)[C@H](CCCCNC(=O)[C@H](CC(C)C)NC(=O)C2OC2C(=O)O)NC(=O)CN2CCN(CC(=O)[O-])CCN(CC(=O)[O-])CCN(CC(=O)[O-])CC2)cc1C(C)C.[177Lu+3] (mixture of isomers) | – | mouse, HT-29 xenograft | 72 h post injection, biodistribution | reference: tumour over heart uptake | tumour-to-heart ratio | 19
COCC1CN(C2CCN(c3cc(OC)c(Nc4ncc(Br)c(Nc5ccc6c(c5P(C)(C)=O)OCCO6)n4)cc3C)CC2)C1 | first-in-human trial | human | oral, 90 mg once daily | treatment-related | serious adverse events | 0%
O=C(CN1CCN(CC(=O)NCc2ncccc2O)CCN(CC(=O)NCc2ncccc2O)CCN(CC(=O)NCc2ncccc2O)CC1)NCc1ncccc1O.[177Lu+3] | – | Sprague-Dawley rat, kidney | intravenous (tail vein), dose not given, 2 h | – | tissue uptake | 0.927 ± 0.285 % injected dose/g
O=C(Nc1cnccc1-c1ccc([18F])cc1)c1ccnc(NC(=O)C2CC2)c1 | – | FVB/NJ mice (both sexes), cerebellum | intravenous, dose not given, 120 min | – | SUV | 0.05
NCCCC[C@H](NC(=O)[C@H](Cc1c[nH]c2ccccc12)NC(=O)[C@@H](N)Cc1c[nH]c2ccccc12)C(N)=O | – | DOPC vesicles | 2 h | – | Trp emission maximum | 357 nm
O=C(NS(=O)(=O)c1cccs1)c1cc2ccccc2n1Cc1ccc(Br)c2ccccc12 | – | KM mouse, chronic hyperuricaemia model, serum | dose not given | – | AST | 110 U/L and 137 U/L and 150 U/L and 163 U/L and 151 U/L and 159 U/L
C[N+](C)(CCOCCOCCOCCNC(=S)Nc1ccc(C[C@H]2CN(CC(=O)[O-])CCN(CC(=O)[O-])CCN2CC(=O)[O-])cc1)C[c-]1cccc1.[64Cu+2].[Fe+2].c1cc[cH-]c1 | pretargeted PET | nude mouse, BxPC-3 xenograft | 24 h post-radioligand, 72 h lag time | – | tumour uptake | 2.6 ± 0.9 %ID/mL
O=C(c1ccccc1)N1C(c2ccc(OCC3CCN(CCCF)C3)cc2)c2ccc(O)cc2CC12CC2 (centres unmarked) | – | C57BL/6J mouse, plasma | intraperitoneal, 25 mg/kg | – | MRT(0-inf) | 2.11 h
O=C([O-])CN1CCN(CC(=O)[O-])CCN(CC(=O)NCC2CCC(C(=O)NC(Cc3ccc4ccccc4c3)C(=O)NCCCCC(NC(=O)NC(CCC(=O)O)C(=O)O)C(=O)O)CC2)CCN(CC(=O)[O-])CC1.[68Ga+3] (centres unmarked) | – | BALB/c mouse, blood | intravenous | – | distribution half-life | 1 min
Cc1cc(C)n(CCN(CCN)CCCCCCNC(=O)[C@@H](N)Cc2c[nH]cn2)n1.[99Tc+].[C-]#[O+].[C-]#[O+].[C-]#[O+] | – | BALB/c nude mice A549 xenograft | intravenous, 4 h | reference: tumour over muscle | tumour-to-tissue ratio | 9.1 and 9
O=C(Nc1ccc(-c2nnc(-c3ccccn3)nn2)nc1)c1ccc(-c2cn(CCOCCOCCOCC[18F])nn2)cc1 | PET imaging | BALB/c nude mouse, LS174T xenograft, tumour, heart as blood | intravenous, 1 h, together with: CC49-TCO 72 h before | reference: tumour over heart | tumour to blood ratio | 0.77

SMILES | test | test system | setting | scale | measurement | value
CCCC[C@H](NC(=O)CNC(=O)CNC(=O)[C@H](CCCCNC(=O)[C@H](CC(N)=O)NC(=O)C(C)c1ccc(CC(C)C)cc1)NC(=O)CN1CCN(CC(=O)O)CCN(CC(=O)O)CCN(CC(=O)O)CC1)C(=O)N[C@H]1CC(=O)NCCCC[C@@H](C(N)=O)NC(=O)[C@H](Cc2c[nH]c3ccccc23)NC(=O)[C@H](CCCNC(=N)N)NC(=O)[C@@H](Cc2ccccc2)NC(=O)[C@H](Cc2c[nH]cn2)NC1=O (some centres unmarked) [lutetium-177 labelled] | – | C57 mice, tumour | 2 h | reference: kidney | tumour-to-tissue ratio | 0.85
[123I]c1ccc2nc(-c3ccc(-n4ccnn4)nc3)cn2c1 | – | male Wistar rat, bone | intravenous, 4 MBq, 30 min | – | tracer uptake | 0.126 %ID/g
CCc1cnc(NC(=O)c2cc(S(=O)(=O)N3CCOCC3)ccc2N(C)C2CCCC2)s1 | – | mouse, serum | 10 mg/kg, 3 doses | – | BUN | 20 mg/dL
C#CCNC(=O)C(CC(C)(C)F)NC(c1ccc(-c2ccc(S(C)(=O)=O)cc2)cc1)C(F)(F)F (centres unmarked) | – | PBS | 100 µM, 23 h, pH 7.45, 37 °C, together with: cysteine 10 mM | – | cysteine adduct formation | 0%
CN1CCC[C@]1(C)/C=C/S(=O)(=O)NC(=O)Nc1c2c(cc3c1C(O)CC3)CCC2 (some centres unmarked) | – | human, plasma | oral, 50 mg twice daily of parent drug, day 14, metabolite of dosed drug | – | Tmax at first steady-state dose | 3 h
CNc1nc(N)nc2c1ncn2C1OC(COP(=O)(O)NC(C)C(=O)O)C(O)C1(C)F (centres unmarked) | – | healthy adult humans, plasma | oral, 550 mg once daily, day 6, fasted, given alone | – | Cmax, arithmetic mean | 626 ng/mL
COc1cccc(OC)c1-c1cc(C(=O)NC2(C(=O)O)C3CC4CC(C3)CC2C4)nn1-c1ccc(C(=O)N(C)CCCN(C)CCCN(C)C(=O)[C@H](CCCCNC(=O)[C@H](CC(C)C)NC(=O)C2OC2C(=O)O)NC(=O)CN2CCN(CC(=O)[O-])CCN(CC(=O)[O-])CCN(CC(=O)[O-])CC2)cc1C(C)C.[177Lu+3] (mixture of isomers) | – | mouse, HT-29 xenograft | 72 h post injection, biodistribution | reference: tumour over heart uptake | tumour-to-heart ratio | 40.6
CCCC[C@H]1C(=O)N(C)[C@@H](CCCC)C(=O)N[C@@H](CCCCNC(=S)Nc2ccc(CN3CCN(CC(=O)O)CCN(CC(=O)O)CC3)cc2)C(=O)N[C@H](C(=O)NCC(N)=O)CSCC(=O)N[C@@H](Cc2ccc(O)cc2)C(=O)N(C)[C@@H](C)C(=O)N[C@@H](CC(N)=O)C(=O)N2CCC[C@H]2C(=O)N[C@@H](Cc2cnc[nH]2)C(=O)N[C@@H](CCC(=O)O)C(=O)N2C[C@H](O)C[C@H]2C(=O)N[C@@H](Cc2c[nH]c3ccccc23)C(=O)N[C@@H](CO)C(=O)N[C@@H](Cc2cn(CC(=O)O)c3ccccc23)C(=O)N1C [fluorine-18 labelled] | – | SCaBER subcutaneous xenograft, NSG mouse, tumour | intravenous, 60 min | – | tumour uptake | 1.38 ± 0.38 %ID/g
COC(=O)C(C)n1nc(Cn2cc3cc(OCC[18F])c(Cl)cc3n2)c2ccccc2c1=O (racemic) | – | rat, brain | 150 min | – | radiometabolite | 33%
O=C(C1CC1)N1CCC=C(c2cc3c(Nc4cc5ncsc5cc4F)ncnc3s2)C1 | – | BALB/c mouse | – | – | oral bioavailability | 51.5%
C=CC(=O)Nc1cc(Nc2nccc(-c3c[nH]c4ccccc34)n2)c(OC)cc1N(C)CCN(C)C | storage stability | human dried blood spot | 10 d, on ice, HQC level | – | recovery | 71.2%
C=C(NC(=O)c1csc(-c2nc3c(cc2O)-c2nc(cs2)C(=O)NC(C(C)O)C(=O)NC(=C(C)OC)c2nc(cs2)C(=O)NC2c4nc(cs4)C(=O)NC(COC(=O)c4c5c6c(cccc6n4O)COC(=O)C(OC4CC(C)(O)C(N(C)C)C(C)O4)C2OC5)c2nc-3cs2)n1)C(N)=O (centres unmarked) | – | cynomolgus monkey, both sexes, plasma | intravenous infusion, 3 mg/kg single dose | – | clearance | 138 mL/h/kg
OC1(C(F)(F)F)CCN(c2nc(Nc3ccnc(C(F)(F)F)c3)nc(-c3cccc(C(F)(F)F)n3)n2)C1 (centres unmarked) | – | monkey, both sexes, plasma | intravenous, 1 mg/kg | – | clearance | 113 ± 11.6 mL/h/kg
CCCC[C@H](NC(=O)CNC(=O)CNC(=O)[C@H](CCCCNC(=O)[C@H](CC(=O)O)NC(=O)C(C)c1ccc(CC(C)C)cc1)NC(=O)CN1CCN(CC(=O)O)CCN(CC(=O)O)CCN(CC(=O)O)CC1)C(=O)N[C@H]1CC(=O)NCCCC[C@@H](C(N)=O)NC(=O)[C@H](Cc2c[nH]c3ccccc23)NC(=O)[C@H](CCCNC(=N)N)NC(=O)[C@@H](Cc2ccccc2)NC(=O)[C@H](Cc2c[nH]cn2)NC1=O (some centres unmarked) [lutetium-177 labelled] | – | C57 mice, tumour | intravenous, 0.037 MBq, 24 h | reference: kidney | tumour-to-tissue ratio | 1.46
COc1ccnc(C(=O)N[C@H]2COC(=O)[C@H](Cc3ccccc3)[C@@H](OC(=O)C(C)C)[C@H](C)OC2=O)c1O | – | sediment, Swiss lake sand | 20 °C, aerobic dark | – | DT50 | 2.65 days
C=CC(=O)Nc1cc(Nc2nccc(-c3cn(C)c4ccccc34)n2)c(OC)cc1N(C)CCNC | storage stability | human dried blood spots | 72 h, on ice, low QC level | – | recovery | 70.2%
N=C(N)NCCC[C@@H]1NC(=O)[C@H](CO)NC(=O)[C@@H](NC(=O)[C@H](CO)NC(=O)[C@H](CO)NC(=O)[C@H](Cc2c[nH]c3ccccc23)NC(=O)CNC(=O)[C@H](CO)NC(=O)[C@@H](N)Cc2c[nH]c3ccccc23)CSSC[C@@H](C(=O)NCC(=O)O)NC(=O)[C@H](CO)NC1=O | – | patients, plasma | intravenous, 10 mg/kg, thrice weekly, mean | – | total clearance | 1050 L/h
Cc1nn(-c2nc3c(F)cc(F)cc3s2)c(O)c1C(c1ccc(C(F)(F)F)cc1)c1c(C)nn(-c2nc3c(F)cc(F)cc3s2)c1O | – | ICR mouse, plasma | intravenous, 5 mg/kg | – | dose-normalised Cmax | 4330 kg·ng/mL/mg and 1940 kg·ng/mL/mg and 2550 kg·ng/mL/mg
O=C(Nc1cnccc1-c1ccc([18F])nc1)c1ccnc(NC(=O)C2CC2)c1 | – | FVB/NJ mouse, both sexes, liver | intravenous, 15 min, together with: tariquidar 15 mg/kg iv | – | SUV | 8.62
Cc1cccc(Cn2ncc3c4cc(F)c(CN(C)C)cc4n(C)c3c2=O)n1 | – | Dutch-belted rabbit, plasma | intravitreal, 100 µM vitreous, 28.00 days | – | plasma concentration | 3.46 ng/mL

Excerpt of the above:
SMILES | test | test system | setting | scale | measurement | value
COc1cccc(OC)c1-c1cc(C(=O)NC2(C(=O)O)C3CC4CC(C3)CC2C4)nn1-c1ccc(C(=O)N(C)CCOCCOCCN(C)C(=O)[C@H](CCCCNC(=O)[C@H](CC(C)C)NC(=O)C2OC2C(=O)O)NC(=O)CN2CCN(CC(=O)[O-])CCN(CC(=O)[O-])CCN(CC(=O)[O-])CC2)cc1C(C)C.[177Lu+3] (mixture of isomers) | – | mouse, HT-29 xenograft | 72 h post injection, biodistribution | reference: tumour over heart uptake | tumour-to-heart ratio | 19
COCC1CN(C2CCN(c3cc(OC)c(Nc4ncc(Br)c(Nc5ccc6c(c5P(C)(C)=O)OCCO6)n4)cc3C)CC2)C1 | first-in-human trial | human | oral, 90 mg once daily | treatment-related | serious adverse events | 0%
O=C(CN1CCN(CC(=O)NCc2ncccc2O)CCN(CC(=O)NCc2ncccc2O)CCN(CC(=O)NCc2ncccc2O)CC1)NCc1ncccc1O.[177Lu+3] | – | Sprague-Dawley rat, kidney | intravenous (tail vein), dose not given, 2 h | – | tissue uptake | 0.927 ± 0.285 % injected dose/g
O=C(Nc1cnccc1-c1ccc([18F])cc1)c1ccnc(NC(=O)C2CC2)c1 | – | FVB/NJ mice (both sexes), cerebellum | intravenous, dose not given, 120 min | – | SUV | 0.05
NCCCC[C@H](NC(=O)[C@H](Cc1c[nH]c2ccccc12)NC(=O)[C@@H](N)Cc1c[nH]c2ccccc12)C(N)=O | – | DOPC vesicles | 2 h | – | Trp emission maximum | 357 nm
O=C(NS(=O)(=O)c1cccs1)c1cc2ccccc2n1Cc1ccc(Br)c2ccccc12 | – | KM mouse, chronic hyperuricaemia model, serum | dose not given | – | AST | 110 U/L and 137 U/L and 150 U/L and 163 U/L and 151 U/L and 159 U/L
